{"data": "Measurements pooled from the literature", "note": "A part holds a random share of what one study measured. Changes are numbered by the printed parent chain."}
{"data": "Sample 1", "target": "CCND3, cyclin fold, Cln2 fusion (human)", "method": "yeast growth competition, sequencing", "sample": "yeast", "notes": "weak parent motif", "reference": "not given", "direction": "higher = stronger binding", "starting sequence": "viral docking peptide; KKAKRRLFTISDS; partner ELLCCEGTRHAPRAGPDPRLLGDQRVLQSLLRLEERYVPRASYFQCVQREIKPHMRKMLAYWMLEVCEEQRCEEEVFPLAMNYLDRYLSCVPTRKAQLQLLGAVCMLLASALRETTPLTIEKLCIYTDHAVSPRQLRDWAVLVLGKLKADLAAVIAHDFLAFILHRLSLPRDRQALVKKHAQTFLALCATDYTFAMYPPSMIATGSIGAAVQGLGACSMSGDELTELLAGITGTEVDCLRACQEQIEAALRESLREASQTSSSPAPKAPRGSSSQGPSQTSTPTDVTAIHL"}
{"Change": "KKAKRRLFTIADS [S11A]", "normalised enrichment score": 0.184}
{"Change": "KKAKARLFTISDS [R5A]", "normalised enrichment score": 0.194}
{"Change": "KKAKRRLFTASDS [I10A]", "normalised enrichment score": 0.0705}
{"Change": "KKAKRRLFTISAS [D12A]", "normalised enrichment score": 0.111}
{"Change": "AKAKRRLFTISDS [K1A]", "normalised enrichment score": 0.113}
{"Change": "KKAARRLFTISDS [K4A]", "normalised enrichment score": 0.159}
{"Change": "KKAKRRLLTISDS [F8L]", "normalised enrichment score": 0.664}
{"data": "Sample 2", "target": "UBE2D4 UBC core domain (UniProt Q9Y2X8)", "method": "yeast two-hybrid", "sample": "yeast", "notes": "mostly zero background", "reference": "not given", "direction": "higher = stronger interaction", "B1": "RNF152 RING domain (UniProt Q8N8N0); chain ETLSQDSLLECQICFNYYSPRRRPKLLDCKHTCCSVCLQQMRTSQKDVRCPWCRGVTKLPPGFS", "B2": "MYCBP2 RING domain (UniProt O75592); chain TSLKQDADDMCMICFTEALSAAPAIQLDCSHIFHLQCCRRVLENRWLGPRITFGFISCPICKNKINHIVLKD", "B3": "ANAPC11 RING domain (UniProt Q9NYG5); chain GICRMAFNGCCPDCKVPGDDCPLVWGQCSHCFHMHCILKWLHAQQVQQHCPMCRQEWKFKE", "B4": "TRIM37 RING domain (UniProt O94972); chain SVESIAEVFRCFICMEKLRDARLCPHCSKLCCFSCIRRWLTEQRAQCPHCRAPLQLRELVN", "B5": "MEX3B RING domain (UniProt Q6ZN04); chain SGLRRKGSRDCSVCFESEVIAALVPCGHNLFCMECANRICEKSEPECPVCHTAVTQAIRIF", "B6": "RNF166 RING domain (UniProt Q96A37); chain GDSGLEAQYTCPICLEVYHRPVAIGSCGHTFCGECLQPCLQVPSPLCPLCRLPFDPKKVDK", "B7": "RNF183 RING domain (UniProt Q96D59); chain EQQGRELEAECPVCWNPFNNTFHTPKMLDCCHSFCVECLAHLSLVTPARRRLLCPLCRQPTVLASGQP", "sequence of UniProt Q9Y2X8 (whole entry, looked up)": "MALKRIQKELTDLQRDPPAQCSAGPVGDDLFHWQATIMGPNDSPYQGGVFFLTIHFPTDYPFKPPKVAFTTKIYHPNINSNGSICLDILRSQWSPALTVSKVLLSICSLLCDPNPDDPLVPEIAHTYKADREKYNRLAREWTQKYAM"}
{"Sequence": "B1 (RNF152 RING domain)", "lacZ reporter activity": 0}
{"Sequence": "B2 (MYCBP2 RING domain)", "lacZ reporter activity": 0}
{"Sequence": "RYRQMEERITCPICIDSHIRLVFQCGHGACAPCGSALSACPICRQPIRDRIQIF (MIB2 RING domain (UniProt Q96AX9))", "lacZ reporter activity": 0}
{"Sequence": "B3 (ANAPC11 RING domain)", "lacZ reporter activity": 0}
{"Sequence": "YCEMGSTFQLCKICAENDKDVKIEPCGHLMCTSCLTAWQESDGQGCPFCRCEIKGTEPII (CBLB RING domain (UniProt Q13191))", "lacZ reporter activity": 0}
{"Sequence": "QVQSRTKIEECVVCSDKKAAVLFQPCGHMCACENCANLMKKCVQCRAVVERRVPFI (MIB1 RING domain (UniProt Q86YT6))", "lacZ reporter activity": 0}
{"Sequence": "YPEEVDDDLICHICLQALLDPLDTPCGHTYCTLCLTNFLVEKDFCPMDRKPLVLQHCKK (LNX1 RING domain (UniProt Q8TBB1))", "lacZ reporter activity": 0}
{"Sequence": "B4 (TRIM37 RING domain)", "lacZ reporter activity": 0}
{"Sequence": "B5 (MEX3B RING domain)", "lacZ reporter activity": 0}
{"Sequence": "B6 (RNF166 RING domain)", "lacZ reporter activity": 0}
{"Sequence": "B7 (RNF183 RING domain)", "lacZ reporter activity": 0}
{"data": "Sample 3", "target": "HLA class I histocompatibility antigen, A alpha chain, allele A*25:01 (Homo sapiens, UniProt P04439)", "observed": "peptide-MHC binding", "form": "peptide", "concentration": "concentration not given"}
{"Sequence": "FLILPQAKK", "binding": "inactive"}
{"Sequence": "MPWLDNIVE", "binding": "inactive"}
{"Sequence": "AVGVVCTGL", "binding": "inactive"}
{"Sequence": "CLVSGLSSL", "binding": "inactive"}
{"Sequence": "LPVEYLQVP", "binding": "inactive"}
{"Sequence": "RNMSRIFPY", "binding": "inactive"}
{"Sequence": "YLDNVGVHI", "binding": "inactive"}
{"Sequence": "RLAKLTEAI", "binding": "inactive"}
{"data": "Sample 4", "target": "RING finger protein unkempt homolog, zinc fingers 1-6, GST-SBP tag (UNK, Homo sapiens, UniProt Q9C0B0, residues 30-357)", "method": "RNA Bind-n-Seq", "form": "RNA", "sample": "in vitro", "concentration": "not given", "notes": "RNA with constant flanks, human and mouse sites, ends assumed", "reference": "input RNA pool", "direction": "higher = stronger binding", "shared flanks, not repeated": "GGGAGUUCUACAGUCCGACGAUC … CAACAGAGGAUUGAGCAUCA", "Residues (chain)": "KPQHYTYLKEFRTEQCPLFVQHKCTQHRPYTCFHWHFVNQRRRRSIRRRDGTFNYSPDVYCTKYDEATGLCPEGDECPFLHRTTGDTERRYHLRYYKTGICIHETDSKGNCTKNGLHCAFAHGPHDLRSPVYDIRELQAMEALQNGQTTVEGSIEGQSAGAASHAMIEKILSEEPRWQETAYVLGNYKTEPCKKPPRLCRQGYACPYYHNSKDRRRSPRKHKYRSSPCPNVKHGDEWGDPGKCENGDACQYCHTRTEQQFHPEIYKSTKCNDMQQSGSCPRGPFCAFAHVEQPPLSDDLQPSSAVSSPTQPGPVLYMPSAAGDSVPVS"}
{"Strand": "AAGUUCACUGGAAGUGAGAUUCGGGUGAGGGAUGACAAGAUGCCAUUGGCGCACCUUGCAAUAGCUGUUGAAGCAGUUGGUUGGGCCCAUCCAGACACGAUCUGUCUCAUGGUCGCAAAC", "bound/input enrichment [ratio]": 0.134}
{"Strand": "UUGAAACUGUAUGACGUUGCUGUAUCAAAGUUGUAAAAUUAAGCAUUAUUUAUUGAAAACUAUGUAUUUUUUUGUAAAAACCUGAUCACACAAGAGAGUAUCAGUGGCUUGUGCUUUGUG", "bound/input enrichment [ratio]": 0.199}
{"Strand": "CCCUGGGGUAUGACGUGGCAUGGGGGAGCAAGCAGUCCAGGGGACCUCUUGGAAACAGCAUUAGGCUUUUUCCCUUUUCAGUAACAUUGUUCGGAACUACUUGUCAAUGUGUUUGAGGUG", "bound/input enrichment [ratio]": 0.366}
{"Strand": "CACCAACAGUAUGUGCAGCGGAUAGAGAAGCAGUUUCUUUUGUAUGCAUACUGGAUAGGCCUGGGGAUUUUGUCCUCUGUUGGUCUUGGAACAGGACUGCACACCUUUCUGCUUUAUCUG", "bound/input enrichment [ratio]": 0.0639}
{"Strand": "AAAUCGUGUGUGUCCAAUAUUGAAAGUGCUUUAUCUACACUCCAGUAUGUAAGCAGUAUAGUAGUUUCUUUAGAGAAUAGGUCAGCCAUUGUAAAGUACAAUGCAAGCUUAGUCACUCCA", "bound/input enrichment [ratio]": 9.31}
{"Strand": "UUUAUCUUAGAAAGCCUUGGGUCAUUCACAGGUAUCCAACCAGCCAUUGUUUAGUUUGUUUUUGAAGGGGUUUGAUAAUGCUUUUUAAGUUGUACAGAAUGCUUAAUCCAUCUUAUUACU", "bound/input enrichment [ratio]": 3.68}
{"Strand": "GAGUCCUAGGAUGUUUCUCUUGCCUCCUUCUUGCUUUUUUCCUUUCCCCCAGUAGAGACCUAGCAAAGCUUUACAAAGCCCCUGAAAGUAGAUCCCAGAGAGAAAGUUUGCAGUCAGGUG", "bound/input enrichment [ratio]": 0.585}
{"Strand": "GAUAUCCCACUGUUCCCCGUGCAGACAAAAUACAUGGAUGUGGUCAAGGAGCGAAUCCGUUUAGCUCGACAGAUUGAGAAAUCUGAGUAUCGGAACUUCCAGGCUUGCCUGCACAACUCU", "bound/input enrichment [ratio]": 0.0908}
{"note": "Excerpt of the above (sample 2):"}
{"Sequence": "B3 (ANAPC11 RING domain)", "lacZ reporter activity": 0}
{"Sequence": "B7 (RNF183 RING domain)", "lacZ reporter activity": 0}
{"Sequence": "B5 (MEX3B RING domain)", "lacZ reporter activity": 0}
{"Sequence": "B1 (RNF152 RING domain)", "lacZ reporter activity": 0}
